Experimental data of several laboratories.
Each numbered part is a random draw from the data of one study; scales do not carry over between parts. Changes are numbered by the printed parent chain.

Study 1
Target: Fragile X messenger ribonucleoprotein 1, C-terminal low-complexity region (Fmr1, Mus musculus, UniProt P35922)
Technique: RNA Bind-n-Seq
Form: RNA
Medium: in vitro
Tested at: 200 nM
Setting: whole 134-nt RNA, ends assumed
With: 150 mM KCl
Baseline: input library
Reading: higher = stronger binding
Quantity: log2 enrichment
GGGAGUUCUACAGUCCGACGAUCCAAGUCCUGUGCUACACAUCGUAUGUACCGAAUCGGGUUUGGGUUUGGGGUUUGGAAAGUAUUAUGUUACGCCGUUCGGAUCUGCACUUCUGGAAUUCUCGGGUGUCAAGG: -0.0919
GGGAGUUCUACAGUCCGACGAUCCUGUGCUACACAUCGUAUGUACCGAAUCGGGUUUUUUUGGGUUUUUUUGGGUUUUUUUGGGAAAGUAUUAUGUUACGCCGUUCGGAUCUGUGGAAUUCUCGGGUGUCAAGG: -0.738
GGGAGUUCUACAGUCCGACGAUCCACAAAAAACACGCACCCACACAGACACAGAGGGAAGGGGUUGGGAUGGGGACAGGGUGCACAGCAGGGCGGGGUAGGACCCCAGCCCCUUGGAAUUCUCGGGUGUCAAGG: 1.33
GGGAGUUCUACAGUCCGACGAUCAAGUCCUGUGCUACACAUCGUAUGUACCGAAUCAAAUUUAAACCCAAACCCCCAAAAAAGUAUUAUGUUACGCCGUUCGGAUCUGCACUUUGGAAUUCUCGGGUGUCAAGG: -0.341
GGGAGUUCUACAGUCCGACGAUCCCUGUGCUACACAUCGUAUGUACCGAAUCGGGGUUUUUUUGGUUUUUUUGGUUUUUUUGGGAAAGUAUUAUGUUACGCCGUUCGGAUCUGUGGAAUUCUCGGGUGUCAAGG: -0.864
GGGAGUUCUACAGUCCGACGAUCUCCUCAAGUCCUGUGCUACACAUCGUAUGUACCGAAUCGGAAAGGUGGUGGAAAGUAUUAUGUUACGCCGUUCGGAUCUGCACUUCCAGCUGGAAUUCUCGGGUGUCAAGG: -0.302
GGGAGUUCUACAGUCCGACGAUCUGGCCCUGGUGGCAUGCGGGGAGGAAGAGGUGGCCUCAUGGAUCUUGGUGGUCCCGGUGGAAUGUUCAGAGGUGGCCGUGGUGGAGACAGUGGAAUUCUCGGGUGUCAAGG: 0.0302
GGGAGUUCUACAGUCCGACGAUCACCAUGCAGGUGGGCAUCUUUCGGAAGUGGGGCAAGGGGGGGAUAGGGAGGGGGGUAACACUUUGGGAACAGGUGGUCCCAGGUCGUUUCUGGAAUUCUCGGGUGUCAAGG: 1.09
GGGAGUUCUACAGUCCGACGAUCCUGUGCUACACAUCGUAUGUACCGAAUCGGUUUUUUUGGGGUUUUUUUGGUUUUUUUGGGGAAAGUAUUAUGUUACGCCGUUCGGAUCUGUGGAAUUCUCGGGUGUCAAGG: -0.927
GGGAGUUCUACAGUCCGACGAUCACCAAAAAGGUGGGCAUCUUUGGGAAGUGGGGCAAGGGGGGGAUAGGGAGGGGGGUAACACUUUGGGAACAGGUGGUCCCAGGUCGUUUCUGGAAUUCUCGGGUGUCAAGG: 0.966
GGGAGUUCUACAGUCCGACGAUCGCAGGAAGUAAAAACAAAUGGAAAUGCUCCGGAUAGUGGCAGGGGUGGGGGUUGCUAAGGAAAGGGUGGGAUGGGAGUGGGUAAAGAGUUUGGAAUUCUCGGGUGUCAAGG: 0.308
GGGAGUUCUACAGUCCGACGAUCUAACUUUAGAGGAGGAUCUGAUGGAUAUGGCAGUGGACGUGGACUUGGGGAUGGCUAUAAUGGGUAUGGAGGAGGACCUGGAGGUGGCAAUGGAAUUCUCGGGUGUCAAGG: 0.21
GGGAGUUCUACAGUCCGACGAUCACGAUGCAGGUGGGCAUCUUUGGGAAGUGGGGCAAGGGGGGGAUAGGGAGGGGGGUAACACUUUGGGAACAGGUGGUCCCAGGUCGUUUCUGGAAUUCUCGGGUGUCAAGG: 1.12
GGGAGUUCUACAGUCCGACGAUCCACAGACAACACGCACCCACACAGACACAGAGGGACGGGGUUGGGAUGGGGACAGGGUGCACAGCAGGGCGGGGUAGGACCCCAGCCCCUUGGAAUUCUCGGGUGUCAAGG: 1.47

Study 2
Target: CCND3, cyclin fold, Cln2 fusion (human)
Technique: yeast growth competition, sequencing
Medium: yeast
Setting: weak parent motif
Baseline: not given
Reading: higher = stronger binding
Quantity: normalised enrichment score
Starting sequence: PKN2 docking peptide (human); VSAVRKLDFSDTM; partner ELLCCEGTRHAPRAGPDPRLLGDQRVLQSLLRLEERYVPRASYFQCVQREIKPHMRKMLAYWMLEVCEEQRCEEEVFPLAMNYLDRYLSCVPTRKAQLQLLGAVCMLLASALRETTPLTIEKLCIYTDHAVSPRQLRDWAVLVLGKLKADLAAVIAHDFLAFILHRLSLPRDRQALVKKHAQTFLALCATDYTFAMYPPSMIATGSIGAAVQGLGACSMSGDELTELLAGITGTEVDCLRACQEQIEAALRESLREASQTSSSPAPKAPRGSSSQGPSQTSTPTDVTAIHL
VSAVRKLDFADTM [S10A]: 1.13
VSEVRKLDFSDTM [A3E]: -0.388
VSAVRKLGFSDTM [D8G]: 0.105
VSAVRKLDFSDDM [T12D]: 1.46
VSAVRKLDFSSTM [D11S]: 0.71
VSAVRKLDFSDCM [T12C]: 1
VSAVRKLDVSDTM [F9V]: 0.0907
VVAVRKLDFSDTM [S2V]: 0.268
VSCVRKLDFSDTM [A3C]: 0.545
VWAVRKLDFSDTM [S2W]: 0.54
VSMVRKLDFSDTM [A3M]: 0.0684
VSALRKLDFSDTM [V4L]: 0.317
VLAVRKLDFSDTM [S2L]: 0.38
VSAVRKLDFMDTM [S10M]: 0.405
VSAVRKLDFIDTM [S10I]: 0.291
VSAVRKLDFSATM [D11A]: 0.751
VSAFRKLDFSDTM [V4F]: 0.39
VSAVRKLDASDTM [F9A]: -0.175
VSAVRKYDFSDTM [L7Y]: 0.0386
VPAVRKLDFSDTM [S2P]: 0.389
VSAVRKLDFSDEM [T12E]: 1.51
VSAVKKLDFSDTM [R5K]: 0.186
VSAVAKLDFSDTM [R5A]: 0.056

Study 3
Target: Interferon regulatory factor 5, full length, phosphomimetic (IRF5, Homo sapiens, UniProt Q13568-2, residues 1-514, K96S/S451D/S453D/S456D/S462D)
Technique: protein-binding microarray
Form: double-stranded DNA, one strand shown
Medium: in vitro
Tested at: 250 nM
Setting: 60-bp whole probe
With: salmon DNA 0.4 mg/ml
Baseline: random background probes
Reading: higher = stronger binding
Quantity: log fluorescence
Constant ends, left off below: GCCTAGCAC … GTCTTGATTCGCTTGACGCTGCTG
GACGGTACCCTTTTCCTGACGTGCTAG: 0.0464 z-score
GACGATTTCAGTATAGAGACGTGCTAG: 1.69 z-score
TTAGGTTTCGGTCTCGGATAGTGCTAG: 9.93 z-score
GACGGACTGGGACTGGGAACGTGCTAG: -0.732 z-score
GACGATATCGGGTATCCAGACGTGCTA: 1.79 z-score
CCTTGTGTTACTTTCTACTTGTGCTAG: 2.53 z-score
TTAGAACTGAGACTGGACTAGTGCTAG: -0.373 z-score
TCATCCCTTTCTCTCTGACTGTGCTAG: 1.13 z-score
GACGTTTTCCTTTCCCTGACGTGCTAG: 1.63 z-score
GACGATTTTGGGTATCGAGACGTGCTA: 1.09 z-score
TTAGTACTGGGTTTCGGTTAGTGCTAG: 7.82 z-score
GACGGTTACGACTATCGGGACGTGCTA: 1.11 z-score
GGGCCTTGCATGTTTTTGACAGTGCTA: -0.664 z-score
TTAGATTTCAGAGTGGATTAGTGCTAG: 0.371 z-score
TTAGTTCTCAGTTTCGATTAGTGCTAG: 9.45 z-score
TCAGAACTGTTTCTTGAACTGTGCTAG: 0.538 z-score
TTAGCACTGGACACTGGGTTAGTGCTA: -0.452 z-score
TTAGGTATCCTTTTCCTGTAGTGCTAG: 0.432 z-score
TCATGTTTCCTTCCTCTACTGTGCTAG: 1.06 z-score
TTAGGTCTACTTATCCTTTAGTGCTAG: -0.0952 z-score
TGAGATTTCGGGTATCGATTAGTGCTA: 6.66 z-score
TTAGGACTGGACACTAGGTTAGTGCTA: -0.309 z-score
TTAGGACTGCTTCTTCTTTAGTGCTAG: -0.0782 z-score
TGCTTTGGACCCAGGGCTAAGTGCTAG: -0.598 z-score
GACGGACTGGGTCTTGGGACGTGCTAG: -0.808 z-score

Study 4
Target: Myc proto-oncogene protein, bHLH-zipper, MAX partner unstated (MYC, Homo sapiens, UniProt P01106, residues 368-449)
Sequence of UniProt P01106 (368-449, looked up): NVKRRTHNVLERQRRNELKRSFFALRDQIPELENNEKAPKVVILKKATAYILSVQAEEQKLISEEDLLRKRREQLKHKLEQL
Technique: protein-binding microarray
Form: double-stranded DNA, one strand shown
Medium: in vitro
Tested at: not given
Setting: k-mer, scored over probes, only values ≥0.25
Reading: higher = stronger binding
Quantity: E-score
AGCCCCGC: 0.255
ACCACGAT: 0.373
ACATGCAC: 0.389
CCCGCCTC: 0.337
CGTGTAAC: 0.281
ACGAGCGT: 0.251
CATGGCAA: 0.402
CACGAGTA: 0.357
CGCACACG: 0.398
GCCCACGA: 0.304
ATGCGGCC: 0.286
AGTCACGA: 0.304
CGTGCGGA: 0.293
CCCATGAG: 0.313
AGCCTCAT: 0.27
ATCGCATG: 0.37
ATCATGGC: 0.299
CATGCGAA: 0.267
CACCTCCA: 0.253

Study 5
Target: Prothrombin, mature alpha-thrombin (F2, Homo sapiens, UniProt P00734)
Technique: aptamer microarray, sandwich
Form: DNA with 2'F-ANA
Medium: in vitro
Tested at: 200 nM
Setting: whole 15-mer aptamer, many near background
With: Cy3 exosite-II aptamer, 400 nM
Reading: higher = stronger binding
Quantity: mean fluorescence intensity
Oligonucleotide: GGTTGGTGTGGTTGG
2'F-ANA at 2 4 5 7 9 10 12 14 15: 45.1 a.u.
2'F-ANA at 1 2 5 9 11 13 14 15: 47.2 a.u.
2'F-ANA at 4 6 9 10 11 13 15: 88.6 a.u.
2'F-ANA at 1 2 3 9 11 15: 170 a.u.
2'F-ANA at 1 4 5 12 14: 53.4 a.u.
2'F-ANA at 3 4 6 8 10 11 14: 170 a.u.
2'F-ANA at 2 3 4 5 7 9 10 11 12 14 15: 49.2 a.u.
2'F-ANA at 1 2 3 7 10 11 14 15: 51.5 a.u.
2'F-ANA at 2 3 4 8 9 10 11: 240 a.u.
2'F-ANA at 1 3 5 13 15: 52.4 a.u.
2'F-ANA at 4 7 8 9 11 13 14: 83.6 a.u.
2'F-ANA at 2 3 4 5 6 7 9 10 13: 52.6 a.u.
2'F-ANA at 1 2 4 5 6 8 9 12 14 15: 57.9 a.u.
2'F-ANA at 1 4 7 9 10 12 13 15: 53.2 a.u.
2'F-ANA at 5 8 10 12 13: 54.7 a.u.
2'F-ANA at 3 4 7 9 13: 532 a.u.
2'F-ANA at 1 2 4 5 6 7 8 9 11 12 13 15: 62.5 a.u.
2'F-ANA at 5 6 10 11 12 14 15: 47.4 a.u.
2'F-ANA at 2 4 5 7 10 11 14 15: 53 a.u.
2'F-ANA at 1 5 7 10 11 14: 87.9 a.u.
2'F-ANA at 4 5 8 9 10 12 14 15: 70 a.u.
2'F-ANA at 2 6 7 9 10 15: 106 a.u.

For quick reference, copied from above (study 3):
GACGGTTACGACTATCGGGACGTGCTA: 1.11 z-score
GGGCCTTGCATGTTTTTGACAGTGCTA: -0.664 z-score
TTAGATTTCAGAGTGGATTAGTGCTAG: 0.371 z-score
TTAGTTCTCAGTTTCGATTAGTGCTAG: 9.45 z-score
TCAGAACTGTTTCTTGAACTGTGCTAG: 0.538 z-score
TTAGCACTGGACACTGGGTTAGTGCTA: -0.452 z-score
TTAGGTATCCTTTTCCTGTAGTGCTAG: 0.432 z-score
TCATGTTTCCTTCCTCTACTGTGCTAG: 1.06 z-score
TTAGGTCTACTTATCCTTTAGTGCTAG: -0.0952 z-score
